{"data": "Assay results from different studies", "rhlR": "HTH-type quorum-sensing regulator RhlR (rhlR, Pseudomonas aeruginosa, UniProt P54292)", "BRAF": "Serine/threonine-protein kinase B-raf (BRAF, Homo sapiens, UniProt P15056)", "Astl": "Astacin-like metalloendopeptidase (Astl, Mus musculus, UniProt Q6HA09)", "FGFR4": "Fibroblast growth factor receptor 4 (FGFR4, Homo sapiens, UniProt P22455)", "MPO": "Myeloperoxidase (MPO, Homo sapiens, UniProt P05164)", "note": "Each line is one published result; not all experiments were run side by side. Numbers after ± are the reported error.", "UniProt P54292, sequence (whole entry, looked up)": "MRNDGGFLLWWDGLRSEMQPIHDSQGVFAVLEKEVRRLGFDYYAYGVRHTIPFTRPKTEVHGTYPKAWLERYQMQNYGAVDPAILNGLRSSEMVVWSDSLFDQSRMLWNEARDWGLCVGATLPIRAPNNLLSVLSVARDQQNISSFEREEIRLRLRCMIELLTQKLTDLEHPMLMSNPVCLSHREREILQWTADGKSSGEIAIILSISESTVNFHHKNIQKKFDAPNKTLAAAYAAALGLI", "UniProt Q6HA09, sequence (whole entry, looked up)": "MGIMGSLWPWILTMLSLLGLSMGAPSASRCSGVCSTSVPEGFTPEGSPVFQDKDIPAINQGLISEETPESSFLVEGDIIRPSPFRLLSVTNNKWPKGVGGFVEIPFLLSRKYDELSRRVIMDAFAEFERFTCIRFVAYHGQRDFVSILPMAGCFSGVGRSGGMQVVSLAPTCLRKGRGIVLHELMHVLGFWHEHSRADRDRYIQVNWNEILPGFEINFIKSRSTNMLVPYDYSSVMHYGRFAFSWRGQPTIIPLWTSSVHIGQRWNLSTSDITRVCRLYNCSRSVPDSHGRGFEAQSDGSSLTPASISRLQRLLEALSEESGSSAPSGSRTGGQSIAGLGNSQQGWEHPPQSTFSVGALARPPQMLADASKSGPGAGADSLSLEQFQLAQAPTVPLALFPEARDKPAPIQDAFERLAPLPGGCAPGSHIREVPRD", "UniProt P22455, sequence (whole entry, looked up)": "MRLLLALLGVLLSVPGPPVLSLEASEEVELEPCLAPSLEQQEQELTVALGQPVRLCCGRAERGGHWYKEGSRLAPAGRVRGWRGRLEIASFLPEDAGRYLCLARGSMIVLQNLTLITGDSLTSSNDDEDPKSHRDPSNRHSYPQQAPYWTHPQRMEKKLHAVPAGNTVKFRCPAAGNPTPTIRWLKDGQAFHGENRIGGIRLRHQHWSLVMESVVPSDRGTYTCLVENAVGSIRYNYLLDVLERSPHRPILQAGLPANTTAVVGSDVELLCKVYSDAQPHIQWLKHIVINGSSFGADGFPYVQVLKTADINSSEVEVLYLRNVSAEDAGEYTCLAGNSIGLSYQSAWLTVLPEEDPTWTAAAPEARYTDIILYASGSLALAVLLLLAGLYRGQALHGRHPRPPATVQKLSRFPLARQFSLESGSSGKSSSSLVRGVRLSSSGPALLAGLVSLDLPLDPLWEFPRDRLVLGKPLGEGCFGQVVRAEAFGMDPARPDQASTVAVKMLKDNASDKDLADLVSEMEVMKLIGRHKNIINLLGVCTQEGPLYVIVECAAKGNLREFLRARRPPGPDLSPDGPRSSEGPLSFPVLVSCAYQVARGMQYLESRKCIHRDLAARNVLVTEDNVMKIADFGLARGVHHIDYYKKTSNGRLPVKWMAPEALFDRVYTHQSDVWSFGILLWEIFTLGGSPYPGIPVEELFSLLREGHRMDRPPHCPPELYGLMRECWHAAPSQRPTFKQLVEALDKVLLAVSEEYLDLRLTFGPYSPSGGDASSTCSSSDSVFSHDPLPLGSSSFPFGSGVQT", "UniProt P05164, sequence (whole entry, looked up)": "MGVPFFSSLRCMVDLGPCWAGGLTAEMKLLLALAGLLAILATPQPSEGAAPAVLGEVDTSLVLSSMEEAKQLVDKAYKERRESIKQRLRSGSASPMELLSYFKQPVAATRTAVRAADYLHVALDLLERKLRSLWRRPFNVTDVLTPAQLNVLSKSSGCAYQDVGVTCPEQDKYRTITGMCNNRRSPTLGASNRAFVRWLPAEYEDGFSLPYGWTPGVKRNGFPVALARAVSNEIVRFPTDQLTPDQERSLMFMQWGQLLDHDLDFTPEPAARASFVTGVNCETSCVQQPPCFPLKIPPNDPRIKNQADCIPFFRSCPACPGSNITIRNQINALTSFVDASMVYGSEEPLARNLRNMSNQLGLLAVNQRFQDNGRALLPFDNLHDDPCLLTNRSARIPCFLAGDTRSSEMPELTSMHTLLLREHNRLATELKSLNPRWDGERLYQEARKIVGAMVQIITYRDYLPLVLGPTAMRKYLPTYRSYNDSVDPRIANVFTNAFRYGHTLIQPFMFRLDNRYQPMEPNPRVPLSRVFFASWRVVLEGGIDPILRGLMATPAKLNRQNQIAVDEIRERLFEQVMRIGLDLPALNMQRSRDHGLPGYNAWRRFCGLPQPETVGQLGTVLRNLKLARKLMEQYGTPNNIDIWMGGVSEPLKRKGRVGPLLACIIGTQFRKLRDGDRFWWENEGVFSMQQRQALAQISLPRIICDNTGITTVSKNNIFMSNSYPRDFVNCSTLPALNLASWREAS", "UniProt P15056, sequence (whole entry, looked up)": "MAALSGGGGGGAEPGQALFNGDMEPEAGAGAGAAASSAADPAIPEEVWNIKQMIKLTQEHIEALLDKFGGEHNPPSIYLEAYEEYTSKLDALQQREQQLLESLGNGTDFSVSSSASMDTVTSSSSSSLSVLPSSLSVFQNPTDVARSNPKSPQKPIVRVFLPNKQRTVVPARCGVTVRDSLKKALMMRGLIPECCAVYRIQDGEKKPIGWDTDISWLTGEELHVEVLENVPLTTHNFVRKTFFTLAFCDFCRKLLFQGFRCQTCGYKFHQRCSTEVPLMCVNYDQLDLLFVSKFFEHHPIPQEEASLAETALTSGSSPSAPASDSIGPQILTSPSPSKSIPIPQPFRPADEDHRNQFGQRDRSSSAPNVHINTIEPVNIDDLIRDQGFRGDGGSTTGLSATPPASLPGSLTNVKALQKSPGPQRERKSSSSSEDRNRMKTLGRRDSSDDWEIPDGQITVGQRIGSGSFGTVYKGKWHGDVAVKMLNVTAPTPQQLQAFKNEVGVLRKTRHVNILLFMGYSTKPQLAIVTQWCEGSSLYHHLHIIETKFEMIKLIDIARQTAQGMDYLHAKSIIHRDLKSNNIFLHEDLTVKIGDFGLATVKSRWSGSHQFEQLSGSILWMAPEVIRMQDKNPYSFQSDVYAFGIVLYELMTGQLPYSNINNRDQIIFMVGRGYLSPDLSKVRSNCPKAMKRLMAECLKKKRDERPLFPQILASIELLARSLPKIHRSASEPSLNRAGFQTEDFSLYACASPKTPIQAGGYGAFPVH", "UniProt Q00536, sequence (whole entry, looked up)": "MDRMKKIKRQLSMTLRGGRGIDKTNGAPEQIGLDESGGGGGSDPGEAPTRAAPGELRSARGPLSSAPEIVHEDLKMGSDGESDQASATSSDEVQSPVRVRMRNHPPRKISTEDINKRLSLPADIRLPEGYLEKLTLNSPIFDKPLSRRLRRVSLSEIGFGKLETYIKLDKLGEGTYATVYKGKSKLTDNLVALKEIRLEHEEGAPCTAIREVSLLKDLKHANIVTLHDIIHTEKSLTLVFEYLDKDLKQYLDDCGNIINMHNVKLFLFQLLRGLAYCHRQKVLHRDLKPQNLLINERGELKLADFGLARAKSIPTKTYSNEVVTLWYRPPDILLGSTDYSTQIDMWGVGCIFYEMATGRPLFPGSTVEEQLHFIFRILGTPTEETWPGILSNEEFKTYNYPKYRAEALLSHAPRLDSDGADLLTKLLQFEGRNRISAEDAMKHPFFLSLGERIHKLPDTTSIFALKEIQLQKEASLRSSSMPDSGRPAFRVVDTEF", "UniProt P24534, sequence (whole entry, looked up)": "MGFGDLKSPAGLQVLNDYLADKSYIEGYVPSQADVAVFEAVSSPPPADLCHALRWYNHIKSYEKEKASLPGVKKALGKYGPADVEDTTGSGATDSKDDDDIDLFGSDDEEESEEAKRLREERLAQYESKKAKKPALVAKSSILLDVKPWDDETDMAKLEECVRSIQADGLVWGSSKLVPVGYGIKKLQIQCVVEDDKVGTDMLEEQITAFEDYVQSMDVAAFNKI", "UniProt P45983, sequence (whole entry, looked up)": "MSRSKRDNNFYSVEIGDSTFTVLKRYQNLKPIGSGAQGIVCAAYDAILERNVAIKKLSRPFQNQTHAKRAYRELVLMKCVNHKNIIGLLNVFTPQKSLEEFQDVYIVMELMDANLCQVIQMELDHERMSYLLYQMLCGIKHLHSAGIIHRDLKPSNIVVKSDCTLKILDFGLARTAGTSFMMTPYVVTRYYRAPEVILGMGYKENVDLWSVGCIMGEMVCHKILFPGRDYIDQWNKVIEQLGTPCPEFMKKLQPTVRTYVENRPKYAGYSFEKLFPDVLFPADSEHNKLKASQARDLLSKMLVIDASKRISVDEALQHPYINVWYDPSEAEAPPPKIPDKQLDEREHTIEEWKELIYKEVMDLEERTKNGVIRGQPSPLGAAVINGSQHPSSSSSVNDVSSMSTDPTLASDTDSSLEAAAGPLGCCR", "UniProt Q9H093, sequence (whole entry, looked up)": "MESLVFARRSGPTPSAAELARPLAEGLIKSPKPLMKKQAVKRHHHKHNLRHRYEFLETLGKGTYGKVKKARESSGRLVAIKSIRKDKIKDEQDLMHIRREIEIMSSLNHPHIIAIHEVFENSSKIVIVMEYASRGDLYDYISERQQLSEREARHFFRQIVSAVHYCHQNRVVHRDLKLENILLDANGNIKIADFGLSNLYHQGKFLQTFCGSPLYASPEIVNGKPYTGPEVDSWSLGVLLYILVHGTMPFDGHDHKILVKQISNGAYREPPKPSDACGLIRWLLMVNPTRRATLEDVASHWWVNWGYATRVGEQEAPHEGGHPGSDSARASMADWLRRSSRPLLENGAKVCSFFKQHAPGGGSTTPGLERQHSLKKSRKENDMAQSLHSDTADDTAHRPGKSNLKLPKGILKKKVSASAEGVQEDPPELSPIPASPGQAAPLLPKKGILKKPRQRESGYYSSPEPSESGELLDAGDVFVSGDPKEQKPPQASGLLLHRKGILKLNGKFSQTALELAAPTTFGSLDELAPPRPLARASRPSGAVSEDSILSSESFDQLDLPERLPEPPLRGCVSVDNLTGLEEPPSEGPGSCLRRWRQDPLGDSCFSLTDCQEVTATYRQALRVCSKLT"}
{"SMILES": "COc1cccc(C(=O)C#Cc2ccc(O)c(OC)c2)c1", "target": "rhlR", "assay": "reporter gene, inhibitor, quorum sensing reporter strain", "setting": "10 µM, 1.5 h", "scale": "reference: DMSO", "remaining activity": "64%"}
{"SMILES": "COc1cc(-c2cncc3c2CN(C)Cc2cc(N4CCNCC4)ccc2-3)cc(OC)c1OC", "target": "PDK2 (Homo sapiens, UniProt Q15119)", "assay": "kinase activity", "setting": "1 µM, human enzyme, together with: ATP 10 µM", "scale": "reference: DMSO control", "remaining activity": "138%"}
{"SMILES": "COc1cc(C#C[C@@H](O)CC(C)C)ccc1O", "target": "rhlR", "assay": "reporter gene, inhibitor, quorum sensing reporter strain", "setting": "10 µM, 1.5 h", "scale": "reference: DMSO", "remaining activity": "74%"}
{"SMILES": "CC#CC(=O)N1CCC[C@H]1c1nc(-c2ccc(C(=O)Nc3ccccn3)cc2)c2c(N)nccn12", "target": "BRAF", "assay": "kinase activity, inhibitor, HotSpot radiometric", "setting": "100 nM, together with: ATP 10 µM", "remaining activity": "90 ± 3.1%"}
{"SMILES": "COc1cc(Nc2ncc3c(n2)-c2ccc(Cl)cc2C(c2c(F)cccc2OC)=NC3)ccc1C(=O)O", "target": "SRPK2", "assay": "kinase activity", "setting": "1 µM", "remaining activity": "94%"}
{"SMILES": "O=C(NC1CCC1)c1ccc2nc(-c3cccc(NS(=O)(=O)NCCN4CCCCC4)c3)cn2c1", "target": "NUAK2 (Homo sapiens, UniProt Q9H093)", "assay": "enzyme activity", "setting": "10 µM", "remaining activity": "100%"}
{"SMILES": "O=C(CCN(Cc1ccncc1)Cc1ccc2c(c1)OCO2)NO", "target": "Astl", "assay": "enzyme activity, inhibitor, fluorogenic", "setting": "0.25 µM", "remaining activity": "116 ± 5%"}
{"SMILES": "O=C(O)c1ccc(Nc2ncc3c(n2)-c2ccc(Cl)cc2C(c2c(F)cccc2F)=NC3)cc1", "target": "human TrkB(h)", "assay": "kinase activity", "setting": "1 µM", "remaining activity": "112%"}
{"SMILES": "COc1cc(N2CCN(C)CC2)ccc1Nc1nc(N)n(C(=O)NCc2ccccc2S(=O)(=O)C(C)C)n1", "target": "FGFR4", "assay": "enzyme activity", "setting": "10 µM", "scale": "reference: control", "remaining activity": "0.55%"}
{"SMILES": "Cc1cc(NC(=O)c2cccc(NC(=O)/C=C/CN(C)C)c2)ccc1Nc1nccc(-c2cccnc2)n1", "target": "MAPK8 (Homo sapiens, UniProt P45983)", "assay": "enzyme activity, inhibitor", "setting": "0.1829 µM, 0 h, unit not given, together with: GSH 10 mM pre-incubation", "scale": "reference: vehicle", "remaining activity": 0.246}
{"SMILES": "COc1cc(C#CC(=O)c2ccccc2)ccc1O", "target": "rhlR", "assay": "reporter gene, inhibitor, quorum sensing reporter strain", "setting": "10 µM, 1.5 h", "scale": "reference: DMSO", "remaining activity": "52%"}
{"SMILES": "C[C@H]1[C@H](OC(=O)CCC(=O)O)O[C@@H]2O[C@@]3(C)CC[C@H]4[C@H](C)CC[C@@H]1[C@@]24OO3", "target": "Non-structural polyprotein pORF1, helicase domain (Hepatitis E virus genotype 1, UniProt P33424)", "assay": "ATPase activity, inhibitor, colorimetric", "setting": "19.5 µM, preincubation 30 min, together with: ATP 300 µM", "scale": "reference: untreated", "remaining activity": "83.8%"}
{"SMILES": "CCOc1cc(N2CCN(C)CC2)ccc1Nc1nc(N)n(C(=O)NCc2ccccc2S(=O)(=O)C(C)C)n1", "target": "FGFR4", "assay": "enzyme activity", "setting": "10 µM", "scale": "reference: control", "remaining activity": "1%"}
{"SMILES": "O=C(C#Cc1ccc(F)c(F)c1)c1ccc(Cl)cc1", "target": "rhlR", "assay": "reporter gene, inhibitor, quorum sensing reporter strain", "setting": "10 µM, 1.5 h", "scale": "reference: DMSO", "remaining activity": "100%"}
{"SMILES": "COc1ccc(Cl)cc1-c1cc(=O)[nH]c(=S)n1CC(N)=O", "target": "MPO", "setting": "0.3125 µM, 0.1 h", "remaining activity": "97.7%"}
{"SMILES": "O=C(CCN(Cc1ccc(Cl)cc1F)Cc1ccc(Cl)c(O)c1F)NO", "target": "Astl", "assay": "enzyme activity, inhibitor, fluorogenic", "setting": "5 µM", "remaining activity": "7 ± 1%"}
{"SMILES": "NC/C(=C\\F)COc1cccc(Cn2c(=S)[nH]c(=O)c3[nH]cnc32)c1", "target": "MPO", "assay": "LDL lipid peroxidation, inhibitor, cholesteryl ester hydroperoxide", "setting": "0.5 µM", "remaining activity": "7.12%"}
{"SMILES": "O=C(CCN(Cc1ccncc1)Cc1ccc(Cl)c(O)c1F)NO", "target": "Astl", "assay": "enzyme activity, inhibitor, fluorogenic", "setting": "5 µM", "remaining activity": "31 ± 2%"}
{"SMILES": "CCCCC[C@H](O)CC(=O)CCc1ccc(O)c(OC)c1", "target": "rhlR", "assay": "reporter gene, inhibitor, quorum sensing reporter strain", "setting": "10 µM, 1.5 h", "scale": "reference: DMSO", "remaining activity": "84%"}
{"SMILES": "O=C(CCN(Cc1ccc2c(c1)OCO2)Cc1ccc(Cl)cc1F)NO", "target": "Astl", "assay": "enzyme activity, inhibitor, fluorogenic", "setting": "5 µM", "remaining activity": "26 ± 4%"}
{"SMILES": "COc1ccc(F)cc1C(=O)NCc1ccc(-c2nn([C@@H](C)C(F)(F)F)c(N)c2C(N)=O)cc1", "target": "BRAF", "assay": "kinase activity, inhibitor, HotSpot radiometric", "setting": "100 nM, together with: ATP 10 µM", "remaining activity": "93.3 ± 0.1%"}
{"SMILES": "OC(C#Cc1ccc(F)c(F)c1)c1ccccc1Cl (stereo not shown)", "target": "rhlR", "assay": "reporter gene, inhibitor, quorum sensing reporter strain", "setting": "10 µM, 1.5 h", "scale": "reference: DMSO", "remaining activity": "58%"}
{"SMILES": "Nc1ncc2c(n1)-c1c([nH]c3ccc(-c4ccc(F)cc4)cc13)CCC2", "target": "TSSK3 (Homo sapiens, UniProt Q96PN8)", "assay": "kinase activity, inhibitor, radiometric", "setting": "1 µM, together with: ATP at Km", "remaining activity": "132%"}
{"SMILES": "C=CC(=O)N1CCC[C@@H](n2nc(-c3ccc(Oc4ccccc4)cc3)c3c(N)ncnc32)C1", "target": "Elongation factor 1-beta (Homo sapiens, UniProt P24534)", "setting": "1 µM", "remaining activity": "19.8%"}
{"SMILES": "c1cnc2ccc(Nc3nc(NC4CC4)c4nc[nH]c4n3)cc2c1", "target": "FGFR4", "assay": "kinase activity, inhibitor, SelectScreen kinase profiling", "setting": "1 µM", "scale": "reference: control", "remaining activity": "87%"}
{"SMILES": "COc1cc(F)ccc1-c1ncnc(Nc2cccc(C[S@](C)(=N)=O)c2)n1", "target": "MAP3K5 (Homo sapiens, UniProt Q99683)", "assay": "kinase activity", "setting": "10 µM, together with: 10 µM ATP", "remaining activity": "104%"}
{"SMILES": "Cc1ccc(C(=O)C#Cc2ccc(F)c(F)c2)cc1", "target": "rhlR", "assay": "reporter gene, inhibitor, quorum sensing reporter strain", "setting": "10 µM, 1.5 h", "scale": "reference: DMSO", "remaining activity": "69%"}
{"SMILES": "C=CC(=O)N1CCC[C@@H](n2nc(-c3ccc(Oc4ccccc4)cc3)c3c(N)ncnc32)C1", "target": "Cyclin-dependent kinase 16, with cyclin Y (CDK16, Homo sapiens, UniProt Q00536)", "assay": "kinase activity, inhibitor, HotSpot radiometric", "setting": "100 nM, together with: ATP 10 µM", "remaining activity": "91.7 ± 5.2%"}
{"SMILES": "Nc1ncnc2c1ncn2C1OC(CSCCNCc2cccc(-c3ccccc3)c2)C(O)C1O (stereo not shown)", "target": "RNA N(6)-adenosine-methyltransferase METTL16 (METTL16, Homo sapiens, UniProt Q86W50)", "setting": "10 µM", "remaining activity": "90.7%"}
{"SMILES": "COc1cccc(C(O)C#Cc2ccc(O)c(OC)c2)c1 (stereo not shown)", "target": "rhlR", "assay": "reporter gene, inhibitor, quorum sensing reporter strain", "setting": "10 µM, 1.5 h", "scale": "reference: DMSO", "remaining activity": "68%"}
{"SMILES": "CNc1ncc2c(/C=C/C(=O)N3CCC(OC)CC3)nn(Cc3cccc(C(F)(F)F)c3)c2n1", "target": "FGFR1", "assay": "kinase activity", "setting": "1 µM", "scale": "reference: control", "remaining activity": "90%"}
{"note": "Some of these lines once more:"}
{"SMILES": "O=C(O)c1ccc(Nc2ncc3c(n2)-c2ccc(Cl)cc2C(c2c(F)cccc2F)=NC3)cc1", "target": "human TrkB(h)", "assay": "kinase activity", "setting": "1 µM", "remaining activity": "112%"}
{"SMILES": "COc1cc(N2CCN(C)CC2)ccc1Nc1nc(N)n(C(=O)NCc2ccccc2S(=O)(=O)C(C)C)n1", "target": "FGFR4", "assay": "enzyme activity", "setting": "10 µM", "scale": "reference: control", "remaining activity": "0.55%"}
{"SMILES": "Cc1cc(NC(=O)c2cccc(NC(=O)/C=C/CN(C)C)c2)ccc1Nc1nccc(-c2cccnc2)n1", "target": "MAPK8 (Homo sapiens, UniProt P45983)", "assay": "enzyme activity, inhibitor", "setting": "0.1829 µM, 0 h, unit not given, together with: GSH 10 mM pre-incubation", "scale": "reference: vehicle", "remaining activity": 0.246}
{"SMILES": "COc1cc(C#CC(=O)c2ccccc2)ccc1O", "target": "rhlR", "assay": "reporter gene, inhibitor, quorum sensing reporter strain", "setting": "10 µM, 1.5 h", "scale": "reference: DMSO", "remaining activity": "52%"}
